Measurements of several laboratories.
Lines come from different studies, so protocols differ. “And” joins repeats or separate records; there may be more than shown. ± marks the error that the study gave.
Cell line: A549

SMILES	test	conditions	how to read	endpoint	value
[N-]=[N+]=NCCCNC(=O)CCCC[C@@H]1SC[C@@H]2NC(=O)N[C@@H]21	flow cytometry	1 µM, unit not given, with: NAP-650 400 nM	reference: isotype control	NAP-650 uptake	57.2 and 54.8 and 52.5
CCn1cc(-c2cc(Cn3ccnc3)cc3c2CCN([C@H](c2cc(OC)ccn2)C2CC2)C3=O)c(C(F)(F)F)n1	cell growth, inhibitor	120 h		EC50	13200 nM
CCN(Cc1cnc2nc(N)nc(N)c2n1)c1ccc(C(=O)N2CCC(C(=O)OC)CC2)cc1	CellTiter-Glo	10 µM	100 none, 0 cytostatic, -100 cytotoxic	cell growth	135 ± 9.11%
C/C(=N\O)c1ccc(-c2ccc(O)c(Cl)c2)c(Cl)c1O	fluorescence imaging	30 µM, with: 50 µM 2-NBDG, 15 min	reference: DMSO	2-NBDG uptake	38%
O=C(NOC[C@H](O)CO)c1ccc(F)c(F)c1Nc1ccc(I)cc1F		0.07813 µM, 72 h		viability	69%
COc1cc2ncnc(Cc3cccc(-c4ccc(CO)cc4)c3)c2cc1OC	mitochondrial oxygen consumption, Seahorse XF96	10 µM		inhibition	30%
Cn1cnc2c(F)c(Nc3ccc(Br)cc3F)c(C(=O)NOCCO)cc21		0.03906 µM, 72 h		viability	100%
CCCCN1CCN(c2ccc3nc(-c4ccc5nc(-c6cc(OC)ccc6OC)[nH]c5c4)[nH]c3c2)CC1	SRB	10 µM, 48 h		growth percent	105%
COc1cc(C2=CCCc3c2ccc(OC)c3OCc2ccc([N+](=O)[O-])s2)cc(OC)c1OC		4 h, anoxic		IC50	500 ± 80 nM
COc1cc2ncnc(Cc3cccc(-c4ccccc4)c3)c2cc1OC	mitochondrial oxygen consumption, Seahorse XF96	10 µM		inhibition	45%
COc1cc(C2=CCCc3c2ccc(OC)c3OCc2cnc([N+](=O)[O-])n2C)cc(OC)c1OC	cell growth, SRB	4 h exposure then 120 h oxic, oxic exposure then drug removal		IC50	800 ± 580 nM
O=c1ccn(Cc2cn(-c3c4ccccc4nc4ccccc34)nn2)c(=O)[nH]1	NCI60 single dose	10 µM		growth	91.2%
COc1ccc2c(c1NC(=O)OC(C)c1ccc([N+](=O)[O-])s1)CCC=C2c1cc(OC)c(OC)c(OC)c1 (stereo not shown)		4 h, anoxic		IC50	1420 ± 420 nM
COc1ccc2nccc(Cc3cccc(-c4cnn(C)c4)c3)c2c1	mitochondrial oxygen consumption, Seahorse XF96	10 µM		inhibition	81%
COc1c(C)c(OCc2ccccc2)c(C)c(O)c1C(=O)/C=C/c1ccccc1			reference: CL over A549	selectivity index	2.26
CCCCN1CCN(c2ccc3[nH]c(-c4ccc5[nH]c(-c6ccc(OCC)c(OCC)c6)nc5c4)nc3c2)CC1	SRB	10 µM, 48 h		growth percent	37.7%
COC(=O)C1CCN(C(=O)c2ccc(N(Cc3ccccc3)Cc3cnc4nc(N)nc(N)c4n3)cc2)CC1	CellTiter-Glo	10 µM	100 none, 0 cytostatic, -100 cytotoxic	cell growth	126 ± 7.66%
COc1ccc2nccc(Cc3cccc(-c4ccc(C5COC5)cc4)c3)c2c1	mitochondrial oxygen consumption, Seahorse XF96	10 µM		inhibition	95%
COc1cccc(Oc2ccccc2NC(=O)CNC(=O)c2cccc3ccccc23)c1	SRB	48 h		GI50	316 nM
COc1cc(-c2cccc(Cc3ncnc4cc(OC)c(OC)cc34)c2)ccc1CO	mitochondrial oxygen consumption, Seahorse XF96	10 µM		inhibition	40%

SMILES	test	conditions	how to read	endpoint	value
COc1cccc2c1C(=O)c1c(O)c3c(c(O)c1C2=O)C[C@@](O)(C(=O)CO)C[C@@H]3O[C@H]1C[C@H](N)[C@H](O)[C@H](C)O1	MTT		reference: BJ1 over A549	selectivity index	0.9
COc1ccc(-c2cccc(Cc3ncnc4cc(OC)c(OC)cc34)c2)cc1	mitochondrial oxygen consumption, Seahorse XF96	10 µM		inhibition	54%
COC(=O)C1CCN(C(=O)c2ccc(N(CCCO)Cc3cnc4nc(N)nc(N)c4n3)cc2)CC1	CellTiter-Glo	10 µM	100 none, 0 cytostatic, -100 cytotoxic	cell growth	157%
ClCc1ccnc(-c2cc(CCl)ccn2)c1.F[P-](F)(F)(F)(F)F.[Ir+3].[c-]1ccccc1-c1ccccn1.[c-]1ccccc1-c1ccccn1	microarray	3 µM, 24 h, fold change above 2		number of regulated probe sets	1640
Cc1nc(N(Cc2ccccc2)c2ccc3c(c2)/C(=C/c2ccccc2)C(=O)N3Cc2ccccc2)c2ccccc2n1 (mixture of isomers)	mitochondrial membrane potential, JC-1 flow cytometry	0.6 µM		depolarized cells	53.4%
Cc1cc(NS(=O)(=O)c2ccc(NC(=O)/C(C#N)=C/c3ccc(N4CCCC4)cc3)cc2)no1	cytotoxicity, MTT		reference: HSF over A549 IC50	selectivity index	> 1.11
CN1CCN(c2ccc3[nH]c(-c4ccc5[nH]c(-c6ccc(C(F)(F)F)cc6)nc5c4)nc3c2)CC1	SRB	10 µM, 48 h		growth percent	89.8%
COc1cc2ncnc(Cc3cccc4ccccc34)c2cc1OC	mitochondrial oxygen consumption, Seahorse XF96	10 µM		inhibition	41%
COc1cc(C2=CCCc3c2ccc(OC)c3OC(C)(C)c2ccc([N+](=O)[O-])s2)cc(OC)c1OC	cell growth, SRB	4 h exposure then 120 h oxic, oxic exposure then drug removal		IC50	300 ± 40 nM
O=C1NC(c2ccccc2)(c2ccccc2)C(=O)N1Cc1cn(-c2c3ccccc3nc3ccccc23)nn1	NCI60 single dose	10 µM		growth	78.2%
CCCCc1n(Cc2ccc3ccccc3c2)c2ccccc2[n+]1Cc1ccc2ccccc2c1.[Br-]	NCI60 five-dose			TGI	2420 nM
CCCCCC(=O)Oc1c(C)c(O)c(C(=O)/C=C/c2ccccc2)c(OC)c1C			reference: CL over A549	selectivity index	0.95
COc1ccc(Oc2ccc(CN(C)Cc3cnc4nc(N)nc(N)c4n3)cc2)cc1	CellTiter-Glo	10 µM	100 none, 0 cytostatic, -100 cytotoxic	cell growth	15.3 ± 36.4%
CC1=CC(=O)c2ccccc2C1=O	MTT		reference: IC50 MRC-5 over IC50 A549	selectivity index	0.4
COc1ccc(OC)c(-c2nc3ccc(-c4nc5ccc(N6CCN(C)CC6)cc5[nH]4)cc3[nH]2)c1	SRB	10 µM, 48 h		growth percent	109%
COc1ccc2c(c1)NC(=O)CN2c1nc(C)nc2ccccc12	flow cytometry	0.001 µM, 24 h		cells in S phase	21.5%
Nc1n[n+]([O-])c2ccccc2[n+]1[O-]	cell growth, SRB	4 h exposure then 120 h oxic, oxic exposure then drug removal		IC50	> 208000 nM
COc1ccc(-c2cccc(Cc3ncnc4cc(OC)c(OC)cc34)c2)cc1OC	mitochondrial oxygen consumption, Seahorse XF96	10 µM		inhibition	59%
Cc1cc2c(cc1C)[n+](Cc1ccc3ccccc3c1)cn2Cc1ccc2ccccc2c1.[Br-]	NCI60 five-dose			TGI	2950 nM
COc1cc(Oc2ccc(CNCc3cnc4nc(N)nc(N)c4n3)cc2)cc(OC)c1OC	CellTiter-Glo	10 µM	100 none, 0 cytostatic, -100 cytotoxic	cell growth	109 ± 10.4%
